Published values from different studies.
Parts stem from different laboratories: compare values within a part only.

Study 1 — method: protein-binding microarray; form: double-stranded DNA, one strand shown; matrix: in vitro; tested at: 2200 nM top; notes: 60-bp whole probe; together with: salmon DNA 0.4 mg/ml; baseline: random background probes; reading: higher = stronger binding; all sequences stand within: GCCTAGCAC … GTCTTGATTCGCTTGACGCTGCTG
Target: Interferon regulatory factor 7, full length, phosphomimetic (IRF7, Homo sapiens, UniProt Q92985, residues 1-503, S471D/S472D/S475D/S476D/S477D/S483D/S484D/S487D)
Construct (chain): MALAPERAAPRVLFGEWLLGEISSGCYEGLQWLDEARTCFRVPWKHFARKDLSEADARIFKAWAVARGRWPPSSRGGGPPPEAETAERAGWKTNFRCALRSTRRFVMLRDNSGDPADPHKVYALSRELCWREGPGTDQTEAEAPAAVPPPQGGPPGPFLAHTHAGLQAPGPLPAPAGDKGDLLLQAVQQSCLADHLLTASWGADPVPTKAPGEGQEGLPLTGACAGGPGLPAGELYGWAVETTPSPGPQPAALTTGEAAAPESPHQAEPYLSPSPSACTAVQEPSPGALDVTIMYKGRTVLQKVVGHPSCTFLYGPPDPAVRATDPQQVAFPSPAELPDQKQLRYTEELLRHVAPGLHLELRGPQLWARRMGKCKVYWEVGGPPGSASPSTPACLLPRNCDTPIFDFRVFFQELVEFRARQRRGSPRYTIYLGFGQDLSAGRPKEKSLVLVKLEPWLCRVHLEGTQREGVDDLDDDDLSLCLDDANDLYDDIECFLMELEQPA
Oligonucleotide | fitted relative affinity [z-score]
GACGGTTTCGGGTTGCGGGACGTGCTA | 12.1
GACGATCTCGGTATCGAGACGTGCTAG | -0.102
TCACATACGAGTTTCCAACTGTGCTAG | 1.46
GACGGTTTCGGGTTTCGGGACGTGCTA | 9.71
TTAGATTTCAGTTTCGCTTAGTGCTAG | 7.43
GACGGACCGGGACTGGGGACGTGCTAG | -0.804
TCAAGAATCACAACTAGGACTGTGCTA | -0.726
GACGGACTGCGTTTCCTGACGTGCTAG | 0.44
TCAGTTTTGAGCTCTGTCTGGGTGCTA | 1.36

Study 2 — method: universal PBM; form: double-stranded DNA, one strand shown; matrix: in vitro; tested at: not given; reading: higher = stronger binding
Target: Sal-like protein 4, full length isoform B (SALL4, Homo sapiens, UniProt Q9UJQ4-2, residues 1-616)
Notes: 8-mer, flanks averaged, mean of replicates
Target sequence (chain): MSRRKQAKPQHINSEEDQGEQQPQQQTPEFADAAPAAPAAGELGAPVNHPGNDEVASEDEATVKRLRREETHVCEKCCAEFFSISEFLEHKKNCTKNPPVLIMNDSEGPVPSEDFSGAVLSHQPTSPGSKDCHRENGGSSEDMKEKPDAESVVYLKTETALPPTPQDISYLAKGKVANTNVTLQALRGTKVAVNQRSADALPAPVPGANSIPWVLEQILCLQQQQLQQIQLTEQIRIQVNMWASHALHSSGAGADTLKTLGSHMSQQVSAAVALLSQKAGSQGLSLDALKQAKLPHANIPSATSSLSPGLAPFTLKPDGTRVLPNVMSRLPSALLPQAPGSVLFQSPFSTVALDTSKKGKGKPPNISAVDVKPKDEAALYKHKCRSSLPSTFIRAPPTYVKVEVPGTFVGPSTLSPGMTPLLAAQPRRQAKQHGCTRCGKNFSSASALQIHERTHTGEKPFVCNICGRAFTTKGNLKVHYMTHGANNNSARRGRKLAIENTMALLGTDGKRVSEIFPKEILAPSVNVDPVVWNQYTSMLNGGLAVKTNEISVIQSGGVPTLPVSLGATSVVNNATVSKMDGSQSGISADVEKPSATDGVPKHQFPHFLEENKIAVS
Oligonucleotide | E-score
GCTCCTGA | -0.296
AGTTCAAT | 0.0435
TCACTGAA | -0.0559
AAGTTAAC | 0.195
CCTCATCG | -0.0522
AGTGGATC | -0.0713
TAGACTGA | 0.0685
GGCAAGAA | 0.18

Study 3 — method: protein-binding microarray; form: double-stranded DNA, one strand shown; matrix: in vitro; tested at: not given; reading: higher = stronger binding
Target: Protein C-ets-1 (ETS1, Homo sapiens, UniProt P14921, residues 1-441, Y397A, full length assumed)
Notes: k-mer, scored over probes, only values ≥0.25
Construct (chain): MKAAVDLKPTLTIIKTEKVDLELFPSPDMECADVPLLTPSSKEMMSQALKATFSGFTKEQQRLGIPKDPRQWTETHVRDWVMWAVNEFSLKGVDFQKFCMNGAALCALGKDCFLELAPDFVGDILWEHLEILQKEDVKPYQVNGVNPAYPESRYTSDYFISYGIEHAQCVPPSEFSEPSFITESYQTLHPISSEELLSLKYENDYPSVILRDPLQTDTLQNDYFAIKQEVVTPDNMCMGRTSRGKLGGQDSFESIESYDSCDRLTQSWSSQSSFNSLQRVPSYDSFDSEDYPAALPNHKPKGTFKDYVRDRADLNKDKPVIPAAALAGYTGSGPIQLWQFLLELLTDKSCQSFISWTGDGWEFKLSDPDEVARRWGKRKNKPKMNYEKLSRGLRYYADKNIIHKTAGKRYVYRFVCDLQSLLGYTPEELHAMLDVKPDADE
Oligonucleotide | E-score
GCGCACAA | 0.28
CTGTTTGC | 0.324
ATCGTGCG | 0.269
AATCAACA | 0.28
ATTTGCGG | 0.255
ATGTCGAC | 0.338
TGGCGGAA | 0.297
TACTGACA | 0.284

Mixed results
Substance | target | test | test system | setting | how to read | measurement | result
PhoQ, residues 284 288 289 292 302 303 SCEHLI | PhoP, residues 12 14 15 18 19 NHTVL (Escherichia coli, UniProt P23836) | Sort-seq, item: YFP reporter | E. coli | PhoQ-PhoP variant library, together with: 10 µM Mg2+ | baseline: high Mg2+ state, higher = stronger signaling | fold induction | 6.29

Some of these lines once more (study 1):
Oligonucleotide | fitted relative affinity [z-score]
GACGGTTTCGGGTTTCGGGACGTGCTA | 9.71
TCACATACGAGTTTCCAACTGTGCTAG | 1.46
GACGGACTGCGTTTCCTGACGTGCTAG | 0.44
